Published values gathered from unrelated publications.
Each numbered part is a random draw from the data of one study; scales do not carry over between parts.

Block 1
Target: Histone acetyltransferase KAT6A, both winged helices, GST fusion (KAT6A, Homo sapiens, UniProt Q92794, residues 1-181)
Technique: protein binding microarray
Molecule type: double-stranded DNA, one strand shown
Matrix: in vitro
Concentration: not given
Notes: 8-mer, flanks averaged, mean of 2 arrays, mostly near background
Baseline: not given
Direction: higher = stronger binding
Construct (chain): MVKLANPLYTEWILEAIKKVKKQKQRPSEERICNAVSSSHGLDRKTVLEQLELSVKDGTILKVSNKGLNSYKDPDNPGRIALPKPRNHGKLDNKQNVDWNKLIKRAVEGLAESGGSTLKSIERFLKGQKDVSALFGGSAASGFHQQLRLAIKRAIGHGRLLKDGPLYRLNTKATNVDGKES
Oligonucleotide | E-score
CATTCTGG | -0.0557
AAATTCAG | -0.0667
ATACAAAA | -0.0751

Block 2
Target: Sal-like protein 4, full length isoform A (SALL4, Homo sapiens, UniProt Q9UJQ4, residues 1-1053)
Chain of UniProt Q9UJQ4 (whole entry, looked up): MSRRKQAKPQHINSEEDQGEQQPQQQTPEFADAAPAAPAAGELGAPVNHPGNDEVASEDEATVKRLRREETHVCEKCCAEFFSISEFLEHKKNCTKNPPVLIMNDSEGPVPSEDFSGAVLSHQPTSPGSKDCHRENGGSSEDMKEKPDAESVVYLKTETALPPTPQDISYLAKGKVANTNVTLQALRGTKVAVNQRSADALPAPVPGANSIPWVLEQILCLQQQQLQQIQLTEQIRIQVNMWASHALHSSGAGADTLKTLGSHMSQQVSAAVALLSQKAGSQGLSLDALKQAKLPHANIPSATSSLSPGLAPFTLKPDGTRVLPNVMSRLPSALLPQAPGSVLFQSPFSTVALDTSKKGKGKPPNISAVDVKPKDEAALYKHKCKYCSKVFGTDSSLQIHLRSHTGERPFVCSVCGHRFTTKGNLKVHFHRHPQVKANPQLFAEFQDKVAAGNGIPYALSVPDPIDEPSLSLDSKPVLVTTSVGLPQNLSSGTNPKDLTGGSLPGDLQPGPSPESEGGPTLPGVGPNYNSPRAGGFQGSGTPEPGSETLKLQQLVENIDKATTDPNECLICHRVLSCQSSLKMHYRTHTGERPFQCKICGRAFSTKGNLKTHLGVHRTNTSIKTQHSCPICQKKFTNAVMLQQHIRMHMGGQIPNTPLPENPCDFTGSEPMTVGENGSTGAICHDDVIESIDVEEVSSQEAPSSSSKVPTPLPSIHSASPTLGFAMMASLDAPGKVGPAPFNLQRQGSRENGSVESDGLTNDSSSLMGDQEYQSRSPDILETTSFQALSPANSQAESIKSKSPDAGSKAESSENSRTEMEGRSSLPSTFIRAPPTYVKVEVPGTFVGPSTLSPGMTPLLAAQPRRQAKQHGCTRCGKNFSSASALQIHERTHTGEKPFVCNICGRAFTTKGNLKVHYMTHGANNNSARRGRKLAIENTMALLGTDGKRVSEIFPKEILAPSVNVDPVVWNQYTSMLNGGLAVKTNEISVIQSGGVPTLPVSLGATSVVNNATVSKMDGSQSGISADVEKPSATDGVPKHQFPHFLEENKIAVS
Technique: universal PBM
Molecule type: double-stranded DNA, one strand shown
Matrix: in vitro
Concentration: 600 nM
Notes: 8-mer, flanks averaged, mean of replicates
Direction: higher = stronger binding
Oligonucleotide | E-score
CAGAAGGA | -0.0276
AACCTGTA | 0.135
CGGTTTTC | -0.0568
ATAATGAT | 0.352
ACACGCCC | -0.273

Single results of other studies
IRF3 S386D/S396D/S398D/S402D/T404D/S405D full length, phosphomimetic: Interferon regulatory factor 3, full length, phosphomimetic (IRF3, Homo sapiens, UniProt Q14653, residues 1-427, S386D/S396D/S398D/S402D/T404D/S405D)
Chain of UniProt Q14653 (whole entry, unmodified, looked up): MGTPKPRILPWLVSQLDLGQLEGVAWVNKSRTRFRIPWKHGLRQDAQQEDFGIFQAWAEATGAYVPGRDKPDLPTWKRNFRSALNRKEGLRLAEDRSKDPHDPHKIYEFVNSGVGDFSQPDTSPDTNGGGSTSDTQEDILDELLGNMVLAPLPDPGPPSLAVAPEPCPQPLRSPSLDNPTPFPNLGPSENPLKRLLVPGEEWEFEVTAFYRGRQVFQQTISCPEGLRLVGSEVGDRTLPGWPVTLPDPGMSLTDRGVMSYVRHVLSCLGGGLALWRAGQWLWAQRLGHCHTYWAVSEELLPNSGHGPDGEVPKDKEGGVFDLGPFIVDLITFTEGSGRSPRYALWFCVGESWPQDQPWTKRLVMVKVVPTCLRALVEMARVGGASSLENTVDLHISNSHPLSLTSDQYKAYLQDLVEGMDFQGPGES
Molecule | target | assay | test system | conditions | how to read | endpoint | result
GCCTAGCACGACGGACTGCTTATACTGACGTGCTAGGTCTTGATTCGCTTGACGCTGCTG | IRF3 S386D/S396D/S398D/S402D/T404D/S405D full length, phosphomimetic | protein-binding microarray | double-stranded DNA, one strand shown, in vitro | 2540 nM top, 60-bp whole probe, with: salmon DNA 0.4 mg/ml | baseline: random background probes, higher = stronger binding | fitted relative affinity | -0.384 z-score
PhoQ, residues 284 288 289 292 302 303 GASLAW | PhoP, residues 12 14 15 18 19 LHTVM (Escherichia coli, UniProt P23836) | Sort-seq, item: YFP reporter | E. coli | PhoQ-PhoP variant library, with: 10 µM Mg2+ | baseline: high Mg2+ state, higher = stronger signaling | fold induction | 12.1
GCCTAGCACGACGGTTTCCTGCTGCTGACGTGCTAGGTCTTGATTCGCTTGACGCTGCTG | IRF3 S386D/S396D/S398D/S402D/T404D/S405D full length, phosphomimetic | protein-binding microarray | double-stranded DNA, one strand shown, in vitro | 2540 nM top, 60-bp whole probe, with: salmon DNA 0.4 mg/ml | baseline: random background probes, higher = stronger binding | fitted relative affinity | 3.22 z-score
